Measured values collected from several papers.
Compare with care: the assays were run in different laboratories. Values joined by “and” are separate records of one study, mostly repeats; a detail may differ. Numbers after ± are the reported error.
CSNK1E: Casein kinase I isoform epsilon (CSNK1E, Homo sapiens, UniProt P49674)
Chain of UniProt P27361 (whole entry, looked up): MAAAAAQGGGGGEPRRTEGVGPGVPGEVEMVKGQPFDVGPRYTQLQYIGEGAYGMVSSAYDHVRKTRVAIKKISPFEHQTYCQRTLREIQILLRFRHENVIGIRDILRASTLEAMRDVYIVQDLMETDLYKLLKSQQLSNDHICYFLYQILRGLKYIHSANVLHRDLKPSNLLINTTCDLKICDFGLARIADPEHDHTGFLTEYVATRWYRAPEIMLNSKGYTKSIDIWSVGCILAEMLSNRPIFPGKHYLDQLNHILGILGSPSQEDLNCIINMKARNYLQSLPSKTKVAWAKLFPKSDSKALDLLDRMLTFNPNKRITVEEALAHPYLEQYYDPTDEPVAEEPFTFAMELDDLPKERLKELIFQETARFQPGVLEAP
Chain of UniProt P49674 (whole entry, looked up): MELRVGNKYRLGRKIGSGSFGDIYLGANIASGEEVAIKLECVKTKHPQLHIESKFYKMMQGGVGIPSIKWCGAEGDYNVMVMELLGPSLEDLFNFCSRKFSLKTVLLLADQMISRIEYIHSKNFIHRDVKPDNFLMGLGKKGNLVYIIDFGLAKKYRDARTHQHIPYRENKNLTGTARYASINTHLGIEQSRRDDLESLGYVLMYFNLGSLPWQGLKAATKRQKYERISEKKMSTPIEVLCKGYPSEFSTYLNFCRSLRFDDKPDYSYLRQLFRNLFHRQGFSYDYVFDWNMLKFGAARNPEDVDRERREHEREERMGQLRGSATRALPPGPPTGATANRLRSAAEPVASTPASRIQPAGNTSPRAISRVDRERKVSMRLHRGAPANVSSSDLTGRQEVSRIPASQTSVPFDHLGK
Chain of UniProt Q62351 (whole entry, looked up): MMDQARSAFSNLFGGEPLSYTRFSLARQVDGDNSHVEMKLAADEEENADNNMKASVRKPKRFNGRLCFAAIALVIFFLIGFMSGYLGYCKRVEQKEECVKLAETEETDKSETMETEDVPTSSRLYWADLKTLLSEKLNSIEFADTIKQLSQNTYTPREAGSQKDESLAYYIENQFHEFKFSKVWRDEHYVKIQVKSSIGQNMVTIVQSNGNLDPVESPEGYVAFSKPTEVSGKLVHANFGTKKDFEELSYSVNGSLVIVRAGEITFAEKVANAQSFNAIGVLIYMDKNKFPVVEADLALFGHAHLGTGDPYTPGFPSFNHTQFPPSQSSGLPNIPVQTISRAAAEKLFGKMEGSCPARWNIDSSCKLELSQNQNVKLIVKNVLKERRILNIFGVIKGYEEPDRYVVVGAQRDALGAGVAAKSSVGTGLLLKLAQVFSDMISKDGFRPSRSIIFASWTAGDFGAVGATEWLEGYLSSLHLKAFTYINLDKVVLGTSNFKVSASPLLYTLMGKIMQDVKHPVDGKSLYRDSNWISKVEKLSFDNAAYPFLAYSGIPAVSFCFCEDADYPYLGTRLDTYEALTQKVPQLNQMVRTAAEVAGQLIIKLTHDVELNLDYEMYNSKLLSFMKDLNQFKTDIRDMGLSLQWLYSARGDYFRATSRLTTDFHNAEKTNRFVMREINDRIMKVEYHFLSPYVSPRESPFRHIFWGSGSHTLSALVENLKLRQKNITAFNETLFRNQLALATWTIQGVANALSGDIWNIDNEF
Chain of UniProt Q9UMR5 (whole entry, looked up): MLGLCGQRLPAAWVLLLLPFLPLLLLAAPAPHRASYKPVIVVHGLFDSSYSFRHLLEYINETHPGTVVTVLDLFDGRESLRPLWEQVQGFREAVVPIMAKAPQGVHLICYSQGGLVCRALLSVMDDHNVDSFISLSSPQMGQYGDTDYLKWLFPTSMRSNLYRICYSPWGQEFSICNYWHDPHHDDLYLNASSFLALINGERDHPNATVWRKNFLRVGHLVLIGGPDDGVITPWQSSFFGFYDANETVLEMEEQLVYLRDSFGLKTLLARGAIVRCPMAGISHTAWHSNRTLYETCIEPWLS
Chain of UniProt Q14416 (whole entry, looked up): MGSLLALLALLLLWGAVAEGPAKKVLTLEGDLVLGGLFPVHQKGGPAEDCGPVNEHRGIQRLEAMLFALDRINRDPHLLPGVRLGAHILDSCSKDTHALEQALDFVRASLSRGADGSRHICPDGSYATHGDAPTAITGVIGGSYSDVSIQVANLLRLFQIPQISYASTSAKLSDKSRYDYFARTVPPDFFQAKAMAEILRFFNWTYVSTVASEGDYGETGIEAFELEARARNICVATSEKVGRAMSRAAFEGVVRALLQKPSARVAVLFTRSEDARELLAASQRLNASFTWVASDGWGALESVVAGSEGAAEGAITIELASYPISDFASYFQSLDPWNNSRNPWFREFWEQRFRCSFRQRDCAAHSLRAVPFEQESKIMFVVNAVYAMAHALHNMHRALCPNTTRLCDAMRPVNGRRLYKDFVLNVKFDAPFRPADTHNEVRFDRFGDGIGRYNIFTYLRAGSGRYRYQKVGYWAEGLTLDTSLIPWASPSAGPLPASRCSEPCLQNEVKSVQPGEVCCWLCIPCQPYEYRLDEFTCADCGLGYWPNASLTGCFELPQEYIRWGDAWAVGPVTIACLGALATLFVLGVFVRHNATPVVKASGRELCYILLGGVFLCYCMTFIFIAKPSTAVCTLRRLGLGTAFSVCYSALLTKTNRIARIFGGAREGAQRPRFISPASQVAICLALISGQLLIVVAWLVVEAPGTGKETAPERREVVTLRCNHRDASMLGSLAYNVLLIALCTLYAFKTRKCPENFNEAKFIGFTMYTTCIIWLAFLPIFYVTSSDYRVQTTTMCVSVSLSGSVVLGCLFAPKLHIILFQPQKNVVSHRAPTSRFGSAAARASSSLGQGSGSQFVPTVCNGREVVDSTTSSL
Chain of UniProt Q9Y6W6 (whole entry, looked up): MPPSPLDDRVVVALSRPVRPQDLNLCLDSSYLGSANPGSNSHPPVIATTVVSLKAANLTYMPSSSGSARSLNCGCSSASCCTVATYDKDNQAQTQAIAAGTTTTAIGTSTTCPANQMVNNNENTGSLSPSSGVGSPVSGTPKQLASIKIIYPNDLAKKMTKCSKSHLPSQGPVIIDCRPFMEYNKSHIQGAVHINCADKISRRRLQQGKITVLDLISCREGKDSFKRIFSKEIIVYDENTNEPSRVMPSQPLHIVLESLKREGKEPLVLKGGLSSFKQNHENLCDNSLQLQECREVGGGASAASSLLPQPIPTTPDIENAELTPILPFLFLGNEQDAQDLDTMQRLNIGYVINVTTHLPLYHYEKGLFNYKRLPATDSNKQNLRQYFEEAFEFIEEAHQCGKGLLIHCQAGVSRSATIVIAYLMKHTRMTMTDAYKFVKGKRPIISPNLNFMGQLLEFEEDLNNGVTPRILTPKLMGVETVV
Chain of UniProt P41594 (whole entry, looked up): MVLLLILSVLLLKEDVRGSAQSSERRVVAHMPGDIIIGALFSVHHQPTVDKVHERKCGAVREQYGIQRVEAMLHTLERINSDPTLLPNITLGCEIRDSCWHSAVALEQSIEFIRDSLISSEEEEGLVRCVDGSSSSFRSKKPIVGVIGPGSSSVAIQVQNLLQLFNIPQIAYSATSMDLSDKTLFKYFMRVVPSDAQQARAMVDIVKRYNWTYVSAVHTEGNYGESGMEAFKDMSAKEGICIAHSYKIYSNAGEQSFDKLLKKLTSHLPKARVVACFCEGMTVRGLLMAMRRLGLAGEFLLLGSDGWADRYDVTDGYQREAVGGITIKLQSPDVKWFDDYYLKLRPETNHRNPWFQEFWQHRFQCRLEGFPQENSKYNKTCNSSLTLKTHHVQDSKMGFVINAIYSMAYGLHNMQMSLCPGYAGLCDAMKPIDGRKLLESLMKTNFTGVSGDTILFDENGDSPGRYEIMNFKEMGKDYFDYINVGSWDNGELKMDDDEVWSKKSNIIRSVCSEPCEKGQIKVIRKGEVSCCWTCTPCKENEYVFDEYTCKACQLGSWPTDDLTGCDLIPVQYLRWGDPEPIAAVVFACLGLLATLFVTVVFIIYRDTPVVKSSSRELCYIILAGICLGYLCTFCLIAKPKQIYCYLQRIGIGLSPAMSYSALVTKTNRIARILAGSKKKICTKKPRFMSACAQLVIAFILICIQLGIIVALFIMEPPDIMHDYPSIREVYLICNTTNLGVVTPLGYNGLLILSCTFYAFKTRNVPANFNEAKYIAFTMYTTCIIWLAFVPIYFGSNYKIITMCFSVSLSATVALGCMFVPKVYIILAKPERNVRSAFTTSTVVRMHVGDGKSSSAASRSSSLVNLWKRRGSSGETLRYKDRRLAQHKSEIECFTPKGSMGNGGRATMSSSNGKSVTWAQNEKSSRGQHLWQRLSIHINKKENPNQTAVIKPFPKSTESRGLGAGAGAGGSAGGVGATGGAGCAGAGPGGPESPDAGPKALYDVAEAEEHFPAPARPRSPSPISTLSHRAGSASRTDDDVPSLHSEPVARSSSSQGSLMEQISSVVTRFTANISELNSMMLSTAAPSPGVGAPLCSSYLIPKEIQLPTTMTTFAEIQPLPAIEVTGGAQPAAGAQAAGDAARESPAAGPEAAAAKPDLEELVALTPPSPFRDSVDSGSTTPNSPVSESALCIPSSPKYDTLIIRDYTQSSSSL
Chain of UniProt P00942 (whole entry, unmodified, looked up): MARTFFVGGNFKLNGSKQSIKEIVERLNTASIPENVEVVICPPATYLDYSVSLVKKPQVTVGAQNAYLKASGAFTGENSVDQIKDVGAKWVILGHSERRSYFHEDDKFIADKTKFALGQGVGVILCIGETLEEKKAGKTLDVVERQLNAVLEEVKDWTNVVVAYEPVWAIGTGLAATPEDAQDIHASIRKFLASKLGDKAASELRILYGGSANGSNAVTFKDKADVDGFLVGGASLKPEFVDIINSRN
Chain of UniProt Q5XI64 (whole entry, looked up): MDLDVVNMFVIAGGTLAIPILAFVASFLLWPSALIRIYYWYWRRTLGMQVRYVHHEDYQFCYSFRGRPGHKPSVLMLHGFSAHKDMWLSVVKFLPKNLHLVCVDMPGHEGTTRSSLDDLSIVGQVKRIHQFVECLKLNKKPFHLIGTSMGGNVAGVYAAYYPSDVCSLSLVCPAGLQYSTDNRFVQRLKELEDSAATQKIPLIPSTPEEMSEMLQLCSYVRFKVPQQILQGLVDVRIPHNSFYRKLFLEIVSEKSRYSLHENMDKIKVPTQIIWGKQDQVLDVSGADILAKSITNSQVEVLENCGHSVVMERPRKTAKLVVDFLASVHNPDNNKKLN

COc1cccc(OC)c1C(=O)N[C@@H]1C(=O)N2[C@@H]1SC(C)(C)[C@@H]2C(=O)O  kinact/KI (Penicillin-binding protein 2a (pbp2a, Streptococcus pneumoniae, UniProt Q8DNB6); inhibitor): 160 ± 21 M⁻¹ s⁻¹
N#C[C@H](O[C@@H]1O[C@H](CO)[C@@H](O)[C@H](O)[C@H]1O)c1ccccc1  Km (BGLU7 (Oryza sativa, UniProt Q75I93); glucose release, substrate, HPLC; pH 6.0, 30 °C): 4.87 ± 1.45 mM
CC[C@H](CO)Nc1nc(NCc2ccc(-c3ccccn3)cc2)c2ncn(C(C)C)c2n1  binding score (Casein kinase I isoform gamma-2 (CSNK1G2, Homo sapiens, UniProt P78368); KINOMEscan competition binding; 10 µM, primary screen; direction not given): 5.8
CC(=O)C(c1ccccc1)c1ccccc1  activity (Oxysterols receptor LXR-alpha (NR1H3, Homo sapiens, UniProt Q13133); cells; concentration not given): inactive
COC(=O)[C@@]1(O)C[C@H]2O[C@]1(C)n1c3ccccc3c3c4c(c5c6ccccc6n2c5c31)C(=O)NC4  kinase activity (Mitogen-activated protein kinase 3 (MAPK3, Homo sapiens, UniProt P27361); ADP-Glo; 5.92 µM, together with: MBP substrate): 101% and 97.2% and 123%
Nc1ncnc2c1ncn2[C@@H]1O[C@H](COP(=O)(O)OP(=O)(O)OP(=O)(O)O)[C@@H](O)[C@H]1O  fluorescence ratio F+/F- (matB (Rhodopseudomonas palustris, UniProt Q6ND88, C106A/K488A/Q457C/R286C); binding; pH 7.0, 50 mM Hepes, 50 mM NaCl): 3.4
O=C(CCCOc1ccc(Cl)cc1)NC1CCOC1=O (centres unmarked)  Hill slope (qscR, DNA-bound (Pseudomonas aeruginosa, UniProt G3XD77); DNA binding, ligand, EMSA; saturating ligand): 1.9
[2H]c1c([2H])c([C@]2([2H])CCCN2C(=O)C(C)(C)Oc2ccc3cn[nH]c3c2)c([2H])c([2H])c1C([2H])([2H])[2H]  remaining binding (Mitogen-activated protein kinase 8 (MAPK8, Homo sapiens, UniProt P45983); KINOMEscan; 1 µM; relative to: DMSO control): 83%
C[C@H]1CN(c2n[nH]c3nc(N[C@H]4CC[C@H](NS(=O)(=O)CCC(F)(F)F)CC4)ncc23)CCO1  relative abundance (DNA damage-binding protein 1 (DDB1, Homo sapiens, UniProt Q16531); inhibitor, Kinobeads competition profiling; 0.032 µM; relative to: vehicle): 0.94
COc1ccc(N2C(=O)N(c3c(C)cccc3Cl)Cc3cnc(Nc4ccc(C5CCN(C)CC5)cc4OC)nc32)nc1  inhibition (CSNK1E; kinase activity, inhibitor; 0.5 µM, kinase CK1-EPSILON): 4.33%
CN1CCN(c2cc(-c3ccncc3)c(-c3ccc4ccccc4c3)nn2)CC1  activation (C-C chemokine receptor type 10 (CCR10, Homo sapiens, UniProt P46092); agonist, FLIPR; 12.5 µM): -2.7%
O=C[C@H](O)COP(=O)(O)O  kcat (TPI1 (Saccharomyces cerevisiae, UniProt P00942, Y208S); substrate, GPDH/NADH-coupled; pH 4.9, 25 °C): ~240 s⁻¹
Cn1nccc1[C@]1(CNC(=O)c2ccc(F)c(F)c2-c2ccc(C(F)(F)F)cc2)NC(=O)NC1=O  selectivity ratio (Mucosa-associated lymphoid tissue lymphoma translocation protein 1 (MALT1, Homo sapiens, UniProt Q9UDY8); inhibitor; relative to: MALT1 over target): > 16700
CCCCCCCCCC(=O)CC(=O)Nc1ccccc1  K0.5 (qscR (Pseudomonas aeruginosa, UniProt G3XD77); ligand binding, FRET displacement; intact cells; apparent affinity): 22.7 µM
O=C(c1ccc(Cl)cc1)N1CCN2C(=O)N(OC(=O)N3CCOc4ccccc43)C(=O)C2C1 (centres unmarked)  peptide ratio (PPT2 (Homo sapiens, UniProt Q9UMR5); MS-based ABPP; SW-620 conditioned medium; 10 µM, 1 h, 37 °C; relative to: compound over DMSO, lower = more inhibition): 0.41 and 0.38
COc1cc(Nc2ncc(F)c(Nc3ccc4c(n3)NC(=O)C(C)(C)O4)n2)cc(OC)c1OC  inhibition (Phosphatidylinositol 4-phosphate 5-kinase type-1 gamma (PIP5K1C, Homo sapiens, UniProt O60331); KINOMEscan; 10 µM): 100%
CC[C@@H](C)[C@@H](NC(=O)[C@@H](Cc1ccc(O)cc1)NC(=O)[C@H]1CCCN1C(=O)[C@@H](CCCNC(=N)N)NC(=O)[C@H](N)Cc1c[nH]cn1)C(=O)N[C@H](C)C(=O)N[C@H](Cc1c[nH]cn1)C(=O)N[C@H](CCCNC(=N)N)C(=O)N[C@H](CCCCNC(=O)c1cccc(S(=O)(=O)F)c1)C(=O)N[C@H](Cc1ccc(O)cc1)C(=O)N[C@H](CO)C(=O)N[C@H](Cc1ccccc1)C(N)=O  surface TFRC expression (Transferrin receptor protein 1 (Tfrc, Mus musculus, UniProt Q62351); flow cytometry; DC2.4; 6 h, pH 6, unit not given; relative to: 0 h): 0.896 and 0.914
CC(C)(C)C(=O)CSc1ncc2c(n1)-c1cccnc1CC2  active site volume (Dual specificity protein phosphatase 10, catalytic domain (Homo sapiens, UniProt Q9Y6W6); X-ray co-crystal structure; concentration not given): 53.6 Å³
Clc1cc2c(cc1Cl)Oc1cc(Cl)c(Cl)cc1O2  EC80 (Uncharacterized protein (Takifugu rubripes, UniProt Q4JHL4); reporter gene, agonist, dual-luciferase; COS-7; 24 h): 3.94 ± 2.53 nM
O=C(Nc1cnccc1Cl)N1CCN(Cc2ccc3c(c2)OC(F)(F)O3)CC1  inhibition of binding (Metabotropic glutamate receptor 5 (GRM5, Homo sapiens, UniProt P41594); radioligand binding; 10 µM, together with: [3H]quisqualic acid): 6%
COc1cc2c(NC3CCN(C)CC3)cc(-c3ccc(C)o3)nc2cc1OCCCN1CCCC1  inhibition (DNA (cytosine-5)-methyltransferase 1 (DNMT1, Homo sapiens, UniProt P26358); enzyme activity; 15.24 nM): -8.18%
O=C(Nc1cccnn1)N1CCC(=Cc2cccc(Oc3ccc(C(F)(F)F)cn3)c2)CC1  inhibition of binding (Metabotropic glutamate receptor 2 (GRM2, Homo sapiens, UniProt Q14416); radioligand binding; 50 µM, together with: [3H]LY341495): -4%
COc1cc(N)c(Cl)cc1C(=O)NC1CN2CCC1CC2 (centres unmarked)  log2 fold change (Prolactin-releasing peptide receptor (PRLHR, Homo sapiens, UniProt P49683); receptor activation, TANGO luminescence; concentration not given, unconfirmed screen; relative to: vehicle control): 0.181
CN(C(=O)n1cnc(-c2ccc[n+]([O-])c2)c1)C1CCCCC1  fold change (Monoacylglycerol lipase ABHD6 (Abhd6, Rattus norvegicus, UniProt Q5XI64); enzyme activity, ABPP; rat, brain; oral, 30 mg/kg/day, 7 days; relative to: vehicle): -5.6
CCOC(=O)COc1ccc2c(=O)c3ccccc3oc2c1  Vmax (Acetylcholinesterase (ache, Electrophorus electricus, UniProt O42275); enzyme activity, inhibitor, Lineweaver-Burk plot; 1.68 µM; higher = faster reaction): 0.0048 a.u.
FC(F)(F)c1cccc(Nc2nc(NCCOc3ccccc3)nc3[nH]cnc23)c1  inhibition (CSNK1E; Z'-LYTE or Adapta; 5 µM): 19%

A few entries again:
[2H]c1c([2H])c([C@]2([2H])CCCN2C(=O)C(C)(C)Oc2ccc3cn[nH]c3c2)c([2H])c([2H])c1C([2H])([2H])[2H]  remaining binding (Mitogen-activated protein kinase 8 (MAPK8, Homo sapiens, UniProt P45983); KINOMEscan; 1 µM; relative to: DMSO control): 83%
